Results from different studies.
± marks the error that the study gave. In brackets after ≈: the same amount, converted by molar mass.
PGR: Progesterone receptor (PGR, Homo sapiens, UniProt P06401)

CCCCCCCCCCCCNP(=O)(Oc1ccccc1)O[C@@H]1O[C@H](CO)[C@@H](O)[C@H](O)[C@H]1F (mixture of isomers)
inactivation rate constant (GBA1 (Homo sapiens, UniProt P04062); enzyme activity, irreversible inhibitor; pH 5.5, 37 °C, added: 2,4-dinitrophenyl beta-D-glucopyranoside): 4.22 min⁻¹

CC(=O)N[C@@H](Cc1ccc(O)cc1)C(=O)N[C@H](C(=O)N[C@@H](C)C(=O)N[C@@H](CC(=O)O)C(=O)Nc1ccc2c(C)cc(=O)oc2c1)C(C)C
Vmax (Caspase-5 (CASP5, Homo sapiens, UniProt P51878); substrate cleavage, substrate, fluorogenic AMC release; enzyme 0.25 activity units/µL): 556 ± 19.6 RFU/min

CC1=C(/C=C/C(C)=C/C=C\C(C)=C\CO)C(C)(C)CCC1
Km (Sphingolipid delta(4)-desaturase DES1 (DEGS1, Gallus gallus, UniProt Q5F3C1); substrate; cell homogenate): 15 to 21 µM

COc1cc(N2CCN(C(=O)C3CCCN3)CC2)ccc1Nc1ncc(Cl)c(Nc2ccccc2P(C)(C)=O)n1 (stereo not drawn)
Dmax (ALK tyrosine kinase receptor, EML4-ALK fusion (ALK, Homo sapiens, UniProt Q9UM73); degrader; NCI-H3122; 0.5 µM): 82%

CCCCCCCCSc1nc2c([nH]1)c(=O)n(C)c(=S)n2C
remaining activity (PGR; reporter gene, antagonist, MMTV-luciferase; T47D/A1-2; 10 µM, 24 h, added: 5 nM progesterone; baseline: maximal activity): 82%

C=CCn1c(=O)c2ccccc2n2c(SCC(=O)Nc3ccc(NC(C)=O)cc3)nnc12
pA2 (CHRM2 (Homo sapiens, UniProt P08172); ERK1/2 phosphorylation, antagonist; human cells; 0.3 µM, added: [3H]NMS, iperoxo at EC80): 10.4 ± 0.15

NC(=O)C1CCNC(=O)C(CCCNC(=O)c2cnccn2)NC(=O)C(CC2CCCCC2)NC(=O)C(CC2CC2)NC(=O)C=CC(=O)N1 (stereo not drawn)
enrichment factor (MAP2K6 (Homo sapiens, UniProt P52564); DNA-templated library selection; one selection round): 1.3

NC[C@@H](C(=O)Nc1ccc(-c2cn[nH]c2)cc1)c1ccccc1
IC90 (MYLK4 (Homo sapiens, UniProt Q86YV6); cell-free assay, TR-FRET): 0.0816 µg/mL (≈ 0.266 µM)

CC(C)(C)CCN1C[C@@H]2[C@@H](CNC(=O)c3cc(Cl)cc(Cl)c3)[C@@H]2C1.Cl
Gmax (CACNA1H (Homo sapiens, UniProt O95180); whole-cell patch clamp; HEK-293T, transfected; 100 nM): 0.0966 ± 0.0239 nS/pF

COCCOC(=O)Nc1ccc2c(c1)c(Cc1ccc(C(=O)NS(=O)(=O)c3ccc(C(F)(F)F)cc3)cc1OC)cn2C
Hill coefficient (Tumor necrosis factor receptor superfamily member 1A, extracellular domain (Homo sapiens, UniProt P19438); binding, 19F NMR): 1.32

CNc1ccccc1C(=O)O[C@H]1C[C@H](n2cnc3c(N)ncnc32)O[C@@H]1COP(=O)(O)OP(=O)(O)O
dissociation rate constant (Unconventional myosin-Va (Gallus gallus, UniProt Q02440, D297C/G292C/I296C/S293C/V295G); stopped-flow FRET; 4 °C, added: EDTA 4 mM): 14.1 ± 0.1 s⁻¹

Brc1ccccc1-c1nnc(CSc2nnnn2-c2ccccc2)o1
IC50 (CRHR1 (Homo sapiens, UniProt P34998); calcium signal, antagonist; added: CRF at EC80): inactive

CCN(C(=O)C1CCN(S(=O)(=O)c2ccc3[nH]ncc3c2)CC1)[C@H]1CCc2ccccc21
positive allosteric modulation (Muscarinic acetylcholine receptor M5 (Rattus norvegicus, UniProt P08911); calcium mobilization; CHO cells expressing rat M5; added: acetylcholine EC20): inactive

CC(=O)[C@]12NC(C)(C)C[C@@]1(C)C(=O)C1=C2c2c(c3c4n2C(C)(C)CC2=C4[C@@]4(CC(C)(C)N[C@@](C)(C4)C2=O)CC3(C)C)C(=O)C(C)(C)N1 (racemic)
agonist activity (OPRD1 (Homo sapiens, UniProt P41143); agonist, cAMP; CHO; concentration not given): inactive

CCCCCCCCCCSc1nc2c([nH]1)c(=S)n(C)c(=S)n2C
remaining activity (Nr3c1 (Rattus norvegicus, UniProt P06536); reporter gene, antagonist, MMTV-luciferase; T47D/A1-2; 10 µM, 24 h, added: 5 nM dexamethasone; baseline: maximal activity): 85%

CCOC(=O)CC[C@@H](NC(=O)[C@@H](NC(=O)c1cn(-c2ccc(F)cc2)nc1-c1cccc(C)c1)C(C)C)C(=O)OCC
activation (NOD2 (Homo sapiens, UniProt Q9HC29); NF-kB reporter gene, agonist; HEK-Blue cells expressing NOD2; 10 µM, 16 h): inactive

Cc1ccc2ccc3ccc(C)nc3c2n1.Cc1ccc2ccc3ccc(C)nc3c2n1.O.[Cl-].[Cl-].[Cl-].[Yb+3]
ΔH° (Albumin (ALB, Bos taurus, UniProt P02769); fluorescence quenching, van't Hoff; 290 to 303 K): -23.047 ± 0.012 kcal/mol

CC(=O)OC1(C(C)=O)CCC2C3C=C(C)C4=CC(=O)C(O)CC4(C)C3CCC21C (stereo not drawn)
mRNA fold change (PGR; agonist, item: FKBP5; T47D; 100 nM, 8 h; baseline: ethanol vehicle): 7.5 ± 0.2 fold change

CCCCCCCCSc1nc2c([nH]1)c(=S)n(C)c(=S)n2C
remaining activity (PGR; reporter gene, antagonist, MMTV-luciferase; T47D/A1-2; 10 µM, 24 h, added: 5 nM progesterone; baseline: maximal activity): 97%

CC[C@H](C)[C@H](N)C(=O)N[C@@H](CC(N)=O)C(=O)N1CCC[C@H]1C(=O)N[C@H](C(=O)NCC(=O)N[C@@H](CS)C(=O)N[C@@H](C)C(=O)N[C@@H](CCCNC(=N)N)C(=O)N[C@@H](CO)C(=O)N[C@@H](CCC(=O)O)C(=O)N1CCC[C@H]1C(=O)N[C@@H](CCCCN)C(=O)N[C@H](C(=O)N[C@@H](CC(C)C)C(N)=O)[C@@H](C)CC)[C@@H](C)O
kon (WDR5 (Homo sapiens, UniProt P61964); binding, SPR): 370000 M⁻¹ s⁻¹

O[C@@H]1[C@@H](O)[C@H](O[C@@H]2OC[C@@H](O)[C@H](O)[C@H]2O)C[C@H]2O[C@@H]12
probe labelling (Probable endo-1,4-beta-xylanase C (xlnC, Aspergillus niger, UniProt C5J411); activity-based probe binding, competitive inhibitor, in-gel fluorescence; Aspergillus niger, xylan-induced secretome; concentration not given, band near 30 kDa, added: Cy5 xylobiose activity-based probe): inhibited

CC(=O)N[C@@H](Cc1c[nH]c2ccccc12)C(=O)N[C@@H](Cc1c[nH]c2ccccc12)C(=O)N[C@@H](Cc1c[nH]c2ccccc12)C(=O)N[C@@H](Cc1c[nH]c2ccccc12)C(=O)N[C@@H](Cc1c[nH]c2ccccc12)C(=O)N[C@@H](Cc1c[nH]c2ccccc12)C(=O)NCCCC[C@@H]1NC(=O)[C@H](CCCNC(=N)N)NC(=O)[C@H](CCCNC(=N)N)NC(=O)[C@H](CCCNC(=N)N)NC(=O)[C@H](CCCNC(=N)N)NC(=O)[C@H](CCCNC(=N)N)NC(=O)[C@H](CCCNC(=N)N)NC1=O
remaining activity (KIT (Homo sapiens, UniProt P10721); enzyme activity, inhibitor; 5 µM): 83.1%

COc1ccccc1CNC(=O)CCn1c(=O)[nH]c2ccsc2c1=O
kon (Heat shock protein 90, N-terminal domain (Plasmodium falciparum, UniProt Q8IC05); binding, SPR): 9530 M⁻¹ s⁻¹

CONC(=O)C1CCCN(C(=O)c2ccc(NC(=O)NC34CC5CC(C)(CC(C)(C5)C3)C4)cc2)C1 (stereo not drawn)
lipophilic ligand efficiency (EPHX2 (Homo sapiens, UniProt P34913)): 6.89

CCCCCCCCCCCC(=O)Nc1ccc(OC)nc1C
specific activity (Cocaine esterase (CES2, Homo sapiens, UniProt O00748); substrate; 50 µM, pH 8, 37 °C, enzyme purity 4%): 29 pmol/min/µg

O=C([O-])CN1CCN(CC(=O)[O-])CCN(C(CCC(=O)NCCCCCN(CCCC[C@H](NC(=O)N[C@@H](CCC(=O)O)C(=O)O)C(=O)O)C(=O)c2ccc(I)cc2)C(=O)O)CCN(CC(=O)[O-])CC1.[68Ga+3] (stereo partly drawn)
mean tumour-to-background ratio (FOLH1 (Homo sapiens, UniProt Q04609); PET/CT; prostate cancer patients, lymph node metastases; 60 min; baseline: lesion SUVmax over muscle SUVmean): 34.4

O=C(/C=C/c1ccccc1)OCCCC[P+](c1ccccc1)(c1ccccc1)c1ccccc1
enzyme activity (Catalase (Rattus norvegicus, UniProt P04762); 10 µM, 15 and 30 min): no effect

Repeated from above:
CCCCCCCCSc1nc2c([nH]1)c(=O)n(C)c(=S)n2C
remaining activity (PGR; reporter gene, antagonist, MMTV-luciferase; T47D/A1-2; 10 µM, 24 h, added: 5 nM progesterone; baseline: maximal activity): 82%

COc1ccccc1CNC(=O)CCn1c(=O)[nH]c2ccsc2c1=O
kon (Heat shock protein 90, N-terminal domain (Plasmodium falciparum, UniProt Q8IC05); binding, SPR): 9530 M⁻¹ s⁻¹
